Published values gathered from unrelated publications.
Protocols differ between the studies behind these lines. ± marks the error that the study gave.
Organism: Salmonella typhimurium

The induction factor of Fc1ccc(C2=CCNCC2)cc1 is reported as 0.9 (genotoxicity, SOS/umu test; TA1535/pSK1002; 0.063 mg/mL, 4 h, without S9, full range).
N#C[C@@]1(n2ccc(N)nc2=O)O[C@H](CO)[C@@H](O)[C@H]1O gave a viability of 99.1 (TA100; 10 µM, without S9, unit not given; baseline: control).
For Nc1c2ccccc2nc2ccccc12, “revertant colonies per plate” read 1000 (preincubation Ames test; TA1537; 100 µg per plate).
CC(C)N(N=O)C(C)C: “revertant colonies per plate” 10.3 ± 4 (mutagenicity, Ames plate incorporation; TA1537; 5000 µg/plate, without S9, methanol).
Nc1ccc2cc3ccccc3cc2c1: “revertant fold increase” 28.4 (TA1537; 5 µg/plate, together with: rat liver S9; baseline: vehicle control).
With O=[N+]([O-])c1ccc(N2CCC(NCCC(O)c3ccc(F)c4ccccc34)CC2)c(C(F)(F)F)c1 (centres unmarked) the survival was 104% (SOS/umu test; TA1535/pSK1002, TGA medium; 3.05e-05 mg/mL, 4 h, together with: 10% rat liver S9).
For Cc1cc(C(=O)NC(C)(C)COc2cccc3c2C(N)=NS(=O)(=O)N3)cc(C)n1, the revertant ratio was 1.2 (Ames test, initial; TA100; 150 µg/plate, together with: rat liver S9; baseline: solvent control).
The induction factor of OC(CCN1CC=C(c2ccc(F)cc2)CC1)c1ccc(F)c2ccccc12 (centres unmarked) is reported as 0.6 (genotoxicity, SOS/umu test; TA1535/pSK1002; 0.008 mg/mL, 4 h, with S9, lower range).
Under “revertant colonies per plate”, COc1cccc(-c2n[nH]c(SCc3ccccn3)n2)c1OC is recorded as 13 (Ames test, plate incorporation; TA1535; 0.50 mg/plate, with rat liver S9).
O=C(O)CCCOc1ccc(F)cc1-c1cc(-c2ccccc2C(F)(F)F)n(-c2ccccc2)n1 has a growth-inhibiting concentration of at least 625 µg/plate (Ames test; TA1535; concentration not given, without S9 metabolic activation).
Under “revertant colonies per plate”, CNC(=O)c1c(N(C)N=O)ncn1C is recorded as 30.7 ± 7 (plate incorporation; TA1535, water; 5000 µg/plate, without S9).
O=[N+]([O-])c1ccc(N2CCN(CCC(O)c3ccc(F)cc3)CC2)c(C(F)(F)F)c1 (centres unmarked) gave a survival of 124% (SOS/umu test; TA1535/pSK1002, TGA medium; 0.000244 mg/mL, 4 h, without S9).
For N#Cc1ccnc(Oc2nn([C@H]3C[C@H](F)C3)c3ncnc(N)c23)c1, mutagenicity read “negative” (mini Ames test; TA98 and TA100; concentration not given, with and without S9, negative).
The induction factor of O=[N+]([O-])c1ccc(NC2CCNCC2)c(C(F)(F)F)c1 is reported as 0.7 (genotoxicity, SOS/umu test; TA1535/pSK1002; 0.5 mg/mL, 4 h, without S9, full range).
COCCN(CCOC)N=O: “revertant colonies per plate” 136 ± 24 (mutagenicity, Ames plate incorporation; TA100; 150 µg/plate, 3 d, without S9, methanol).
For CC(=O)N1CCC(C(=O)N2CCN3C(=O)c4cc(-c5ccccc5)ccc4NC(=O)C3C2)CC1 (centres unmarked), “revertants per plate” read 107 (TA100; 1581 µg/plate, with rat liver S9).
Nc1ccc2cc3ccccc3cc2c1 gave a revertant ratio of 14.2 (Ames test, initial; TA98; 1.0 µg/plate, together with: rat liver S9; baseline: solvent control).

Some of these lines once more:
For Cc1cc(C(=O)NC(C)(C)COc2cccc3c2C(N)=NS(=O)(=O)N3)cc(C)n1, the revertant ratio was 1.2 (Ames test, initial; TA100; 150 µg/plate, together with: rat liver S9; baseline: solvent control).
O=[N+]([O-])c1ccc(N2CCN(CCC(O)c3ccc(F)cc3)CC2)c(C(F)(F)F)c1 (centres unmarked) gave a survival of 124% (SOS/umu test; TA1535/pSK1002, TGA medium; 0.000244 mg/mL, 4 h, without S9).
